Published values pooled from the literature.
Parts stem from different laboratories: compare values within a part only. Positions count from the first letter of the parent shown.
UniProt P62344, sequence (whole entry, looked up): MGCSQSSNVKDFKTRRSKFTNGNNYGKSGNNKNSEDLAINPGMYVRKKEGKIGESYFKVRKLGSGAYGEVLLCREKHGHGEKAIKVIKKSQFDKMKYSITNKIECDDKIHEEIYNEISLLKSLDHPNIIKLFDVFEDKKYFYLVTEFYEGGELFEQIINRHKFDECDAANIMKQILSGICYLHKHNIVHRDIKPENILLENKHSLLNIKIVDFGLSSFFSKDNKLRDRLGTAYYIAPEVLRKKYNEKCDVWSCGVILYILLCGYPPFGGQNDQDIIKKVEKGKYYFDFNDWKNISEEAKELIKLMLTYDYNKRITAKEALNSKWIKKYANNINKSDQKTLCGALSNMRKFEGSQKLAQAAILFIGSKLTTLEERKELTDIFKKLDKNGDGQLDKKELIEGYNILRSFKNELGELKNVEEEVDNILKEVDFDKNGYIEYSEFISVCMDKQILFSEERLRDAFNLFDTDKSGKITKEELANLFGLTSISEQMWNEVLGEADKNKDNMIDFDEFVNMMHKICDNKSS

Block 1 — technique: protein-binding microarray; form: hairpin DNA; matrix: in vitro; tested at: not given; baseline: not given; reading: higher = stronger binding
Target: Homeobox protein Hox-C11, full length (HOXC11, Homo sapiens, UniProt O43248, residues 1-304)
UniProt O43248, sequence (whole entry, looked up): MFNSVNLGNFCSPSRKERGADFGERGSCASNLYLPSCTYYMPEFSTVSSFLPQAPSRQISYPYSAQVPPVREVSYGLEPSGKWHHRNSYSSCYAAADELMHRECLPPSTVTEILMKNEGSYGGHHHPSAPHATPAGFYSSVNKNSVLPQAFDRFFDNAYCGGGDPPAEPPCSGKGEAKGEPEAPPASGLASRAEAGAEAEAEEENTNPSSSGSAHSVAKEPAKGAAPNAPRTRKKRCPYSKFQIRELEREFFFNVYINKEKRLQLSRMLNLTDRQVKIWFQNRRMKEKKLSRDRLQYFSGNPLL
Setting: whole hairpin DNA, median over replicate spots
`GAGGCCAGGTGGTTAAAGCCTCCTGGCTTTAACCACCTGGCCTCACACTC (5mC at 34)` gave a median fluorescence of 9600 a.u.
For `GAGGCCTGGTCGTAAAAGCCTCCTGGCTTTTACGACCAGGCCTCACACTC`, the median fluorescence was 9070 a.u.
With `GAGGCCAGGACGTAAAAGCCTCCTGGCTTTTACGTCCTGGCCTCACACTC` the median fluorescence was 9720 a.u.
`GAGGCCAGGTCGTAACGGCCTCCTGGCCGTTACGACCTGGCCTCACACTC (5mC at 16)` has a median fluorescence of 10300 a.u.
The median fluorescence of `GAGGCCAGGCCGTTAAAGCCTCCTGGCTTTAACGGCCTGGCCTCACACTC (5mC at 10)` is reported as 9240 a.u.
`GAGGCCAGCGCGTAAAAGCCTCCTGGCTTTTACGCGCTGGCCTCACACTC (5mC at 9)` has a median fluorescence of 10200 a.u.
The median fluorescence of `GAGGCCAGGTCGTTAATGCCTCCTGGCATTAACGACCTGGCCTCACACTC` is reported as 10500 a.u.
For `GAGGCCAGGTCGTAACGGCCTCCTGGCCGTTACGACCTGGCCTCACACTC`, the median fluorescence was 10400 a.u.

Block 2 — technique: EMSA with sequencing; form: double-stranded DNA, one strand shown; matrix: in vitro; tested at: 10 and 20 nM; baseline: negative control set to 0; reading: higher = stronger binding
Target: Hepatocyte nuclear factor 3-alpha (Foxa1, Mus musculus, UniProt P35582, residues 1-468, full length assumed)
Setting: whole designed probe, mean of two concentrations, ends assumed
Residues (chain): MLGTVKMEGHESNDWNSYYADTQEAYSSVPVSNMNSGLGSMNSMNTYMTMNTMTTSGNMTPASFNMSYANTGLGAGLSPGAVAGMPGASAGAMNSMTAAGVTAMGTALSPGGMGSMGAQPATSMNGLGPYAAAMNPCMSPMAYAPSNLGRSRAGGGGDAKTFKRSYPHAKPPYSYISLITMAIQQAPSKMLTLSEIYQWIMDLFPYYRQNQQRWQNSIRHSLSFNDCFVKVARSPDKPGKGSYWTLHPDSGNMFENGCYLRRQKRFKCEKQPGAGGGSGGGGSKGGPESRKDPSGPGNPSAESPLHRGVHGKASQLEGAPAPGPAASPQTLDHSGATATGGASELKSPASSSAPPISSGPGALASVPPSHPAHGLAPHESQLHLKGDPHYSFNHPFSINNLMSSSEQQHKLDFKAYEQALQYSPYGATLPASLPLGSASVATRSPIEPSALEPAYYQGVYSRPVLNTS
For `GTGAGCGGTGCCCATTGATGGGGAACTTTCCAAACCACCATCTATCTCACTGGCTTAGCAGCAGCAGCTGAGGAGTGGAAGCCAGAAGTACATTCCCATGGAGGAAAGTAAACACTTCATGTTTGCACATCCATCTCAGGAATCCTCTTAGTCACTGAAGGAAAGCAGACAGGAGTGAGTCCAAGGTTTTGGTCAAACCCTGCCTGGCATGAACTAATGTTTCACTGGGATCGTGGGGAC`, “normalised bound fraction” read 0.406 ratio.
`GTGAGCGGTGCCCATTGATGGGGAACGGATGGCCTGTGGATCACGCTTTGAGTAGCAAGCTATGGACTGTTCACTGGTCATATGAAAAAGATGATGACACTGATTAGGCCCACCAGCTAAGTAAACATCGAAAACTCATTCAGCCCCATGAAGTCACTAGAGCTGTGTTAAACAGCCAGTGTGGTCAACAGAAGAAATTTATGTCATGGTATTTGCTTATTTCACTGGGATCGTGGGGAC` — result for “normalised bound fraction”: 0.491 ratio.
Under “normalised bound fraction”, `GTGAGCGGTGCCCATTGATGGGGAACCTGGCTTAAAGTCCTCACTGAAGTGCCTTTTGTCTCTCCTCTTGGTTGTTTCCAAAAACAGTCTTAAAAAAAAAAATCCTTAAATTTCTTTTCATGTTTACATTATCCCTAACAGAATGTTTGCTAAGTGACCTTGGATATCTCACTTGGTACACATTTAGTTTGGTAGATACAACTTTTGTCCAGACAACCTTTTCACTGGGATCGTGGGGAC` is recorded as 0.395 ratio.
Under “normalised bound fraction”, `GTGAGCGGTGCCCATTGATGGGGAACATTTTGTTACTTAATAGTTCTACATGTGTATTAAATCAATATTTTAAAAATACCTATTTAATCCTTTAAGATAAGCATGCTTGTGCATTTTTTGTTTACTTTGAGGACTCCTGAGGCCTATGGCCTATTAAAGATTTCCGTCTTAATTATAGATTTATTCATTTCTTCTTATCTTTTCAGCAGTTTTACATTTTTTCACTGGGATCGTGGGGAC` is recorded as 0.489 ratio.
`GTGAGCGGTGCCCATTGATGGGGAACTATCTGAGAAGTCTGATCCAGAGTTGATGAGCAGATAAAAAATGTTGAAAGGATCCACGCTCTTTCCATCTCTCTGCTTAGTCATCCTCACTGAGATTGCTTTTCTTCAGTTTGTTACTTTTTTTTTTTTTTGAGATCGAGTTTCGCTCTTGTTACCCAGGCTGGAGTGCAATGGGGCGATCTCTGCTCACTGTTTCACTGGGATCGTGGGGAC`: “normalised bound fraction” -0.0404 ratio.
`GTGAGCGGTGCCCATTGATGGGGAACATCTTCCCCCTCTTCCTTGCCCCACCAGCTCACCTACGGGGGTTATTTGCAGATAGGAAAATAAATAAAGCCGGCATTCGTTAACCCTCTTCTGGCGCAAACTGCTGTTTGCTCTGCATCTAACATGGTCCTTACGCGAGGCGTGGCTCCGGGAGAGCAAAGCACCGTGTCAGGCGCATGATCCGGGCTCGCCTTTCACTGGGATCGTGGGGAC` — result for “normalised bound fraction”: 0.353 ratio.
For `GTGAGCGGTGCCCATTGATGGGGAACCAGAGGGGCTCTCAGTCCACTCTGCGGACTGCTGACTGAGACTTTGCAGACCTGCTCCCCTTCTCCCTGCTACCTGCCTGCCGGAAGAGTTGAGTCAACACAGCCCACCTCCTGCACCCAGAGCTGTGAGTCACAGTTGTTCAAACACGGAGGTGTGAATCACTCAACTTCTAGCCTTTGAGACATCTTGTGTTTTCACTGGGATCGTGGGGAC`, “normalised bound fraction” read 0.203 ratio.
`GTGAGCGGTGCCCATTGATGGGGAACTAAATTCCATATAAATTATACATACAAATACATATTATATATGATATAAATATTTGTTATAACATATTATATAAAATATAAATATATACAATGTAAACATATATATTATTCTATACATGTAAATTATATAGAAAGAATAATATATAAAATGTATATATCTATGTCAGGCACAATTACGTGTGTTATTCAATTTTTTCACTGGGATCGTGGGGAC` — result for “normalised bound fraction”: 0.322 ratio.

Block 3 — target: CCNA1, cyclin fold, Cln2 fusion (human); technique: yeast growth competition, sequencing; matrix: yeast; setting: strong parent motif; baseline: not given; reading: higher = stronger binding
Parent: viral docking peptide; TSVRRALFTGGSD; partner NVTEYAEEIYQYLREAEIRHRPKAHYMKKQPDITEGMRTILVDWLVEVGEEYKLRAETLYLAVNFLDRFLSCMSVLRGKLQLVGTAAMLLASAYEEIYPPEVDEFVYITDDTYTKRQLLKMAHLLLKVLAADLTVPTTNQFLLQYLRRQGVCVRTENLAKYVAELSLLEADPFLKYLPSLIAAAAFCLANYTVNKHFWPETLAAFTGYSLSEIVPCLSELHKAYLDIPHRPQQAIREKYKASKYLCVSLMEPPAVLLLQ
`TSVRRALFTGGND [S12N]` — result for “normalised enrichment score”: 0.93.
For `TSVRRALFKGGSD [T9K]`, “normalised enrichment score” read 0.83.
`TSDRRALFTGGSD [V3D]` — result for “normalised enrichment score”: -0.121.
For `TSMRRALFTGGSD [V3M]`, “normalised enrichment score” read 0.254.
Under “normalised enrichment score”, `TSVRRALITGGSD [F8I]` is recorded as -0.0382.
For `TSVRRALFTGGAD [S12A]`, “normalised enrichment score” read 0.702.
`TSVPRALFTGGSD [R4P]` — result for “normalised enrichment score”: -0.147.
For `TSVRCALFTGGSD [R5C]`, “normalised enrichment score” read -0.103.
Under “normalised enrichment score”, `TSVRRALFMGGSD [T9M]` is recorded as 0.932.
`TFVRRALFTGGSD [S2F]`: “normalised enrichment score” 0.514.
For `TSVRRALFWGGSD [T9W]`, “normalised enrichment score” read 0.55.
For `TSVRRATFTGGSD [L7T]`, “normalised enrichment score” read 0.394.
Under “normalised enrichment score”, `TSVRRALFTGGSA [D13A]` is recorded as 0.759.
`TSVRRALFTGGCD [S12C]` — result for “normalised enrichment score”: 1.09.

Further values, each from its own experiment
The remaining binding of `COc1ccc2c(O[C@@H]3C[C@H]4C(=O)N[C@]5(C(=O)O)CC5/C=C\CCCCC[C@H](NC(=O)OC5CCCC5)C(=O)N4C3)cc(-c3csc(NC(=O)C(C)C)n3)nc2c1C` (stereo partly shown) is reported as 100% (Calcium-dependent protein kinase 1 (CDPK1, Plasmodium falciparum, UniProt P62344); cell-free assay, competition with immobilised ligand; 1 µM).
